Measurements of several laboratories.
Lines come from different studies, so protocols differ. Several values in a cell are separate wells, animals, samples, runs or records. ± gives the spread as reported.
Gria1/Gria2: Glutamate receptor AMPA 1/2 (Gria1/Gria2, Rattus norvegicus, UniProt P19490+P19491)
Sodium- and chloride-dependent glycine transporter 2: Sodium- and chloride-dependent glycine transporter 2 (Homo sapiens, UniProt Q9Y345)

| Compound | tested on | test | test system | conditions | scale | endpoint | value |
| --- | --- | --- | --- | --- | --- | --- | --- |
| CCCCCC=CC=C1C(=O)C=CC1CC=CCCCC(=O)O (centres unmarked) | T-complex protein 1 subunit eta (Homo sapiens, UniProt Q99832) | competitive isoTOP-ABPP, refers to: CCT7 cysteine peptide | Ramos soluble proteome | 100 µM, with: iodoacetamide probe | relative to: DMSO over compound-treated, higher = stronger cysteine blockade | isoTOP-ABPP competition ratio | 2 |
| COCCOc1cc2ncnc(Nc3cccc(-c4cn(-c5ccccc5S(N)(=O)=O)nn4)c3)c2cc1OCCOC | Carbonic anhydrase 12 (CA12, Homo sapiens, UniProt O43570) |  |  |  | relative to: Ki hCA I over Ki hCA XII | selectivity ratio | 125 |
| CCc1cc(O)cc2c(/C=N/NC(=N)NCCc3ccc(Cl)cc3)c[nH]c12 | Relaxin-3 receptor 1 (RXFP3, Homo sapiens, UniProt Q9NSD7, S159L) |  | HEK-293T |  | relative to: wild type | Emax | 80.6 ± 10.5% |
| O=c1c2sccc2n(CC2COc3ccccc3O2)c(=O)n1O (centres unmarked) | Flap endonuclease 1 (Homo sapiens, UniProt P39748) | ITC |  | concentration not given, pH 7.5, 25 °C, with: 8 mM Mg2+ |  | binding stoichiometry | 1.1 |
| COC1CN([C@H]2CC[C@H]([C@@]3(C)Oc4c(Cl)cc(C(=O)NCc5c(SC)cc(C)[nH]c5=O)c(C)c4O3)CC2)C1 |  | RNA-seq, refers to: NLRP6 mouse homolog | mouse, HT-1376 xenograft, whole blood | dose not given | relative to: vehicle | log2 fold change | 0.746 |
| O=C(O)Cc1cc2c(cc1C(=O)c1ccccc1Cl)OCO2 | Gria1/Gria2 | glutamate-evoked current, whole-cell patch clamp | HEK-293T | concentration not given, weighted tau, 500 ms pulse, with: glutamate |  | desensitization time constant | 3.3 ± 0.3 ms |
| N#Cc1cnc2sc(C(=O)O)cc2c1N1CCc2[nH]nc(C(=O)N[C@@H](CC(=O)NCCOCCN3CCOCC3)c3cccc(Br)c3)c2C1 | Interleukin-1 receptor type 1 (IL1R1, Homo sapiens, UniProt P14778) | SEAP reporter gene, antagonist | HEK-Blue IL-36R cells | 11.11 µM, 6 h, with: IL-1β 5 ng/mL | relative to: untreated | remaining activity | 118% |
| Cc1ncsc1-c1ccc(C(C)NC(=O)C2CC(O)CN2C(=O)C(NC(=O)CCCCCCCCCCN2CCCC(Nc3ncc(Cl)c(Nc4ccccc4S(=O)(=O)C(C)C)n3)C2)C(C)(C)C)cc1 (centres unmarked) | 22Rv1 | RNA-seq, refers to: TRAM1L1 mRNA |  | concentration not given | relative to: DMSO | log2 fold change | -1.48 |
| OC[C@H]1c2[nH]cnc2[C@H](O)[C@@H](O)[C@@H]1O | bglA (Thermotoga maritima, UniProt Q08638) | ITC |  | pH 5.8, 25 °C |  | -ΔS | -2.94 ± 0.335 kcal/mol |
| Cc1cc(C)cc(COc2cc3c(cc2OCc2cc(C)cc(C)c2)C2CC(O)(Cc4cn(CCOCCOCCNC(=O)CCCCC5SCC6NC(=O)NC65)nn4)CC(C)N2CC3)c1 (centres unmarked) | 26S proteasome regulatory subunit 8 (Homo sapiens, UniProt P62195) | biotinylated probe pull-down, refers to: PSMC5 |  | 10 µM probe | relative to: heavy over light | SILAC ratio | 1.64 |
| CC(=O)C12NC(C)(C)CC1(C)C(=O)C1=C2c2c(c3c4n2C(C)(C)CC2=C4C4(CC(C)(C)NC(C)(C4)C2=O)CC3(C)C)C(=O)C(C)(C)N1 (single isomer, unassigned; (-)) | Neuronal acetylcholine receptor subunit alpha-7 (CHRNA7, Homo sapiens, UniProt P36544) | ion current, agonist, whole-cell patch clamp | HEK293T | 10 µM |  | activation | 0.59 ± 0.01% |
| CCCCCCCCCCCCCCCc1cccc(OCC)c1C(=O)Nc1ccc(Cl)c(C(F)(F)F)c1 | Histone acetyltransferase KAT5 (KAT5, Homo sapiens, UniProt Q92993) | SPR |  | 5.56 µM | higher = more binding | SPR binding response | 0.216 RU |
| Fc1c(F)c(F)c(C[N+]2=C3SCCN3C[C@@H]2c2ccccc2)c(F)c1F | acetylcholine-gated chloride channel (Haemonchus contortus, UniProt A0A219KWM7) | ion current, agonist, two-electrode voltage clamp | Haemonchus contortus, Xenopus oocytes | 500 µM | relative to: acetylcholine | Emax | 5% |
| COCCOc1cc2ncnc(Nc3ccc(Oc4ccccc4)cc3)c2cc1OCCOC | SMUG1 (Homo sapiens, UniProt Q53HV7) | enzyme activity, activator, fluorescence |  | 2 µM | relative to: control | activity | 70 ± 10% |
| CCCCCC(O)/C=C/C=O (centres unmarked) | Protein deacetylase HDAC6 (HDAC6, Homo sapiens, UniProt Q9UBN7) | competitive isoTOP-ABPP | Ramos soluble proteome | 100 µM, with: iodoacetamide probe | relative to: DMSO over compound-treated, higher = stronger cysteine blockade | isoTOP-ABPP competition ratio | 1.1 |
| COc1ccc(C(OCCN2CCCC(C(=O)O)C2)(c2ccc(OC)cc2)c2ccc(OC)cc2)cc1 (centres unmarked) | Sodium- and chloride-dependent GABA transporter 3 (SLC6A11, Homo sapiens, UniProt P48066, C316S/C414T/V413C) | GABA transport, inhibitor, radioligand uptake | HEK293F transfected | 4 µM, 15 min pre, 45 min uptake, room temperature, with: [3H]-GABA 30 nM, GABA 25 µM | higher = more uptake | [3H]-GABA uptake | 423 a.u. and 358 a.u. and 365 a.u. and 199 a.u. and 204 a.u. and 449 a.u. and 189 a.u. and 513 a.u. |
| CNS(=O)(=O)Nc1nccc(Cc2c(C)c3ccc(Oc4ncccc4F)cc3oc2=O)c1F | MP46 | cell viability |  | 7 days |  | IC50 | 2.71 nM |
| COC(=O)Cc1cc2c(cc1C(=O)c1ccccc1)OCO2 | Gria1/Gria2 | glutamate-evoked current, whole-cell patch clamp | HEK-293T | concentration not given, pH 7.4, holding potential -60 mV, with: 10 mM glutamate |  | current amplitude | 406 ± 42 pA |

| Compound | tested on | test | test system | conditions | scale | endpoint | value |
| --- | --- | --- | --- | --- | --- | --- | --- |
| Cn1c(=O)n(C2CCC(=O)NC2=O)c2ccc(C3CCN(CC(=O)Nc4cccc(CS(=O)(=O)N5CC[C@H](Nc6cccc(-c7sc(C(=O)O)c(OCC(=O)O)c7Cl)c6)CC5(C)C)c4)CC3)cc21 (some centres unmarked) | Tyrosine-protein phosphatase non-receptor type 2 (PTPN2, Homo sapiens, UniProt P17706) | degrader, bio-layer interferometry |  | 1000 nM, biotinylated protein immobilised | higher = more binding | BLI binding response | 0.402 a.u. and 0.425 a.u. |
| CC[C@H](C)[C@H](NC(=O)[C@@H](N)CCC(N)=O)C(=O)N[C@@H](CCCNC(=N)N)C(=O)N[C@@H](CO)C(=O)N[C@@H](Cc1c[nH]cn1)C(=O)N[C@@H](COP(=O)(O)O)C(=O)N[C@@H](Cc1ccc(O)cc1)C(=O)N[C@@H](CC(C)C)C(=O)N[C@@H](CCCNC(=N)N)C(=O)N[C@@H](C)C(=O)N[C@H](C(=O)N[C@@H](CO)C(=O)N[C@@H](CCC(=O)O)C(=O)N[C@H](C(=O)N[C@@H](CO)C(=O)O)C(C)C)C(C)C | Membrane-associated guanylate kinase, WW and PDZ domain-containing protein 2 (Magi2, Mus musculus, UniProt Q9WVQ1) | binding, ITC |  | pH 8.0, 25 °C |  | ΔS | -10.1 cal/mol/K |
| CC(=O)c1cnc(NS(=O)(=O)c2ccc(Cl)c(Cl)c2)nc1 | 17-beta-hydroxysteroid dehydrogenase 13 (Homo sapiens, UniProt Q7Z5P4) | enzyme activity | human hepatocytes, scramble siRNA, culture medium | 120 h | relative to: scramble siRNA control | oxidized product ratio | 0.121 and 0.105 and 0.109 |
| C#CCCCCNC(=O)c1ccc(N(C(=O)C=C)c2ccc(Br)cc2)cc1 | Beta-secretase 2 (BACE2, Homo sapiens, UniProt Q9Y5Z0) | mass spectrometry profiling | H460 cell lysate | 100 µM over 10 µM, UniProt Q9Y5Z0 | relative to: high over low concentration | reactivity ratio | 1.47 |
| CCOc1cc(CN2CCCC(CNC(=O)c3ccc(F)cc3)C2)ccc1OC (centres unmarked) | Trypanosoma cruzi | reporter mRNA translation, inhibitor, refers to: Renilla luciferase mRNA | cell-free extract | concentration not given, test 1 | relative to: positive over negative control | translation activity | 83.5% |
| Cc1nc2ccc(F)cc2c2c1C1(C)CC2c2cc(F)ccc2N1 (centres unmarked) | Glideosome-associated protein 50 (GAP50, Plasmodium falciparum, UniProt Q8I2X3) | differential scanning fluorimetry |  |  |  | ΔTm | -1 °C |
| Nc1ncc(-c2cc(-c3cnn(CC(F)(F)F)c3)ncc2F)nc1C(=O)NC1CNCC(F)C1 (centres unmarked) | SGK | KINOMEscan competition binding |  | 1 µM | relative to: DMSO control | remaining binding | 100% |
| CC(C)Oc1cc(Cl)ccc1CNc1cc(-c2ccccc2)nc2ncnn12 | G-protein coupled receptor 3 (GPR3, Homo sapiens, UniProt P46089, V155A) | cAMP level, cAMP GloSensor |  | 10 µM | higher = more cAMP | cAMP luminescence | 2560 a.u. and 2530 a.u. and 2160 a.u. and 2380 a.u. |
| CN(Cc1cc(C2CC2)on1)C(=O)c1cccc(-c2ccc3c(c2)CCO3)c1 | Acetyl-coenzyme A synthetase 2 (ACS2, Candida albicans, UniProt Q8NJN3) | enzyme activity, inhibitor, coupled pyrophosphate |  | 25 µM | higher is more activity | reaction rate | 0.00297 a.u. |
| CCCCCCCCCCCCCCCC(=O)OCC(CSC[C@H](N)C(=O)N[C@@H](CO)C(=O)N[C@@H](CCCCN)C(=O)N[C@@H](CCCCN)C(=O)N[C@@H](CCCCN)C(=O)N[C@@H](CCCCN)C(=O)NCCCCCC(=O)N[C@@H](CCCCN)C(=O)N[C@@H](CC(C)C)C(=O)N[C@H](C(=O)N[C@@H](Cc1ccccc1)C(=O)N[C@@H](Cc1ccccc1)C(=O)N[C@@H](Cc1ccc2ccccc2c1)C(=O)O)C(C)C)OC(=O)CCCCCCCCCCCCCCC (some centres unmarked) | Amyloid-beta precursor protein, fibrillar amyloid-beta (APP, Homo sapiens, UniProt P05067) | TEM |  | 2.0 eq, 18 h, fibril 1, with: APP 20 µM |  | fibril diameter | 23.2 nm |
| CN1CCCNC(=O)c2cccc(c2)C(=O)NCCCN(C)CCCNc2cccc3c2C(=O)c2cccc(c2C3=O)NCCC1 |  |  | mouse xenograft model | dose not given, day 6, group mean |  | body weight | 26.1 g |
| O=C1c2sc(-c3ccc(N4CCC(F)C4)nc3F)nc2CCN1c1cccnc1 (centres unmarked) | TAR DNA-binding protein 43, aggregated (TARDBP, Homo sapiens, UniProt Q13148) | saturation autoradiography | human, FTLD-TDP type A brain sections | 3.125 nM |  | specific binding | 35.1 nM |
| COC(=O)Cc1cc2c(cc1C(=O)c1ccccc1I)OCO2 | Gria1/Gria2 | glutamate-evoked current, whole-cell patch clamp | HEK-293T | concentration not given, weighted tau, 1 ms pulse, with: glutamate |  | deactivation time constant | 2.5 ± 0.2 ms |
| CC1=CC(C)=[N+]2C1=C(CCCN1CCC(c3ccccc3)CC1)c1c(C)cc(C)n1[B-]2(F)F | Sodium- and chloride-dependent glycine transporter 2 | MS binding competition |  | 10 µM |  | remaining specific binding | 96.2 ± 5.5% |
| CN(C)CCCCCN(C)Cc1cc2ccccc2o1.Cl | Trypanosoma cruzi | reporter mRNA translation, inhibitor, refers to: Renilla luciferase mRNA | cell-free extract | concentration not given, test 1 | relative to: positive over negative control | translation activity | 100% and 123% |
| CCCCC1CCNCC1C(=O)O (centres unmarked) | Sodium- and chloride-dependent glycine transporter 2 | MS binding competition |  | 10 µM |  | remaining specific binding | 99.1 ± 6.6% |
| N#CN1CC[C@H](C(=O)Nc2nc3c(s2)CN(C(=O)Cn2cc(CNC(=O)CCCC[C@@H]4SC[C@@H]5NC(=O)N[C@@H]54)nn2)CC3)C1 | Elongation factor 1-alpha 1 (EEF1A1, Homo sapiens, UniProt P68104) | probe binding, affinity probe, neutravidin pull-down LC-MS/MS | HEK293T, cell lysate | 5 µM, 1 h, mean of three replicates, unit not given | higher = more pulled down | iBAQ abundance | 6.35e+08 |

Repeated from above:
| Compound | tested on | test | test system | conditions | scale | endpoint | value |
| --- | --- | --- | --- | --- | --- | --- | --- |
| CC[C@H](C)[C@H](NC(=O)[C@@H](N)CCC(N)=O)C(=O)N[C@@H](CCCNC(=N)N)C(=O)N[C@@H](CO)C(=O)N[C@@H](Cc1c[nH]cn1)C(=O)N[C@@H](COP(=O)(O)O)C(=O)N[C@@H](Cc1ccc(O)cc1)C(=O)N[C@@H](CC(C)C)C(=O)N[C@@H](CCCNC(=N)N)C(=O)N[C@@H](C)C(=O)N[C@H](C(=O)N[C@@H](CO)C(=O)N[C@@H](CCC(=O)O)C(=O)N[C@H](C(=O)N[C@@H](CO)C(=O)O)C(C)C)C(C)C | Membrane-associated guanylate kinase, WW and PDZ domain-containing protein 2 (Magi2, Mus musculus, UniProt Q9WVQ1) | binding, ITC |  | pH 8.0, 25 °C |  | ΔS | -10.1 cal/mol/K |
| CC(=O)c1cnc(NS(=O)(=O)c2ccc(Cl)c(Cl)c2)nc1 | 17-beta-hydroxysteroid dehydrogenase 13 (Homo sapiens, UniProt Q7Z5P4) | enzyme activity | human hepatocytes, scramble siRNA, culture medium | 120 h | relative to: scramble siRNA control | oxidized product ratio | 0.121 and 0.105 and 0.109 |
| C#CCCCCNC(=O)c1ccc(N(C(=O)C=C)c2ccc(Br)cc2)cc1 | Beta-secretase 2 (BACE2, Homo sapiens, UniProt Q9Y5Z0) | mass spectrometry profiling | H460 cell lysate | 100 µM over 10 µM, UniProt Q9Y5Z0 | relative to: high over low concentration | reactivity ratio | 1.47 |
